Experimental data collected from several papers.
Lines come from different studies, so protocols differ.
Organism: Mycobacterium tuberculosis

CCc1ccn2c(C(=O)NCc3ccccc3)c(C)nc2c1 — MIC (microbial growth; H37RV; 5 days): 0.02 µM
NC(=S)NN=Cc1ccc(OC(=O)CN2C(=O)CSC2=O)cc1.NNC(=O)c1ccncc1 — MIC (growth in combination; 192; added: reference drug at 1/2 MIC): 0.0156 µg/mL
Cc1nc2ccc(Br)cn2c1C(=O)NCc1ccc2oc(-c3ccc(Cl)cc3)nc2c1 — MIC (optical density; H37Rv; 144 h): 0.2 µM
Cc1nc(=S)[nH]c(C)c1/N=N/c1nnc(S)s1 — MIC (Microplate Alamar Blue; H37Rv; 5 days, 37 °C): 4 µg/mL
Cc1nc2cc(Br)ccn2c1C(=O)NCc1ccc2oc(-c3ccc(Cl)cc3)nc2c1 — MIC (optical density; H37Rv; 144 h): 10 µM
CCc1ccn2c(C(=O)NCc3ccc(C)cc3)c(C)nc2c1 — MIC (microbial growth, resazurin; H37RV): < 0.195 µM
CCc1nc2ccc(OC(F)(F)F)cn2c1C(=O)NCc1ccc2oc(-c3ccc(OC(F)(F)F)cc3)nc2c1 — MIC (optical density; H37Rv; 144 h): > 25 µM
CCOc1cc(/C=N/NC(=O)c2cccnc2)ccc1OC(=O)CN1C(=O)CSC1=O — MIC (Alamar blue; 192): 1160 µM
CCCCNc1c(Cl)cnn(-c2ccccc2)c1=O — MIC (bacterial growth; H37Rv, 7H9 medium): 900 µM
Cc1ccc(-c2nc3ccc(C)cn3c2C(=O)C(=O)NCc2ccc(N(C)C)cc2)cc1 — MIC (microbial growth, resazurin; H37RV): > 50 µM
COc1cc(/C=N/NC(=O)c2ccncc2)ccc1OC(=O)CN1C(=O)CSC1=O — MIC (Alamar blue; 192): 149 µM
COc1ccc2nccc(CC[C@H]3OC[C@H](NC(=O)c4ccc5c(c4)OCCO5)CO3)c2c1 — MIC (microbial growth; H37RV): > 32 µg/mL
Cc1nnc2nc(-c3ccccn3)cc(NCCc3ccc(OC(F)(F)F)cc3)n12 — MIC (microbial growth; H37RV): 17 µM
CCCCN(CCCC)CC(O)COc1c2ccoc2c(OC)c2oc(CC)cc(=O)c12 (centres unmarked) — MIC (microbial growth, resazurin; 21 days): 16 µg/mL
CCc1nc2ccc(C(F)(F)F)cn2c1C(=O)NCc1ccc2oc(-c3ccc(OC(F)(F)F)cc3)nc2c1 — MIC (optical density; H37Rv; 144 h): > 25 µM
CCN(CC)CCCNc1ccc2ncn3c4ccc(O)cc4c(=O)c1c23 — MIC (microbial growth; H37RV; 7 days): 4 to 8 µg/mL
Nc1ccc(S(=O)(=O)c2ccc(NCCS(=O)(=O)Oc3ccc(S(N)(=O)=O)cc3N)cc2)cc1 — MIC (pabC deletion mutant; concentration not given, 12 days): 6.25 µM
O=C(CN1C(=O)CSC1=O)Oc1ccc(/C=N/NC(=O)c2ccncc2)cc1Cl — MIC (microbial growth, resazurin; H37RV): 0.144 µM
COc1ccc2ncc(F)c(CC[C@@]3(O)CO[C@@H]4[C@@H](NCc5ccc(Cl)c(Cl)c5)CO[C@@H]43)c2n1 — MIC (microbial growth; H37RV): 2 µg/mL
COc1c(Cl)cnn(-c2cccc(C)c2)c1=O — MIC (microbial growth; H37RV): > 1000 µM
CCc1nc2cc(Br)ccn2c1C(=O)NCc1ccc2oc(-c3ccc(Cl)cc3)nc2c1 — MIC (optical density; H37Rv; 144 h): > 10 µM
CCC(CO)NCCNC(CC)CO.COC(=O)C=C1SC(=NN=Cc2ccc(OC(=O)CN3C(=O)CSC3=O)cc2)NC1=O — MIC (growth in combination; H37Rv; added: reference drug at 1/2 MIC): 0.5 µg/mL
Cc1ccc(CNC(=O)C(=O)c2c(C)nc3ccc(C)cn23)cc1 — MIC (microbial growth; H37RV; 5 days): 4.5 µM
Cc1nc(=O)[nH]c(C)c1/N=N/c1nnc(S)[nH]1 — MIC (microbial growth, resazurin; H37RV; 5 days): > 64 µg/mL
Clc1ccc(CCNc2cc(-c3nccs3)nc3nncn23)cc1 — MIC (microbial growth; H37RV; 5 days): 55 µM
Cc1[nH][nH]c(=O)c1/N=N/c1nnc(S)s1 — MIC (microbial growth, resazurin; H37RV; 5 days): > 64 µg/mL
COc1ccc2nccc(CC[C@H]3OC[C@H](NC(=O)c4ccc(C(C)(C)C)cc4)CO3)c2c1 — MIC (microbial growth; H37RV): 8 µg/mL
Cc1nc(=S)[nH]c(C)c1/N=N/c1nnc(S)[nH]1 — MIC (Microplate Alamar Blue; H37Rv; 5 days, 37 °C): 4 µg/mL
CN[C@@H]1[C@H](O)[C@H](NC)[C@H]2O[C@]3(O)[C@H](O[C@@H]2[C@H]1O)O[C@H](C)C[C@H]3NC(=O)Cc1cscn1 — MIC (microbial growth, broth dilution; H37RV): 1.6 µg/mL
O=c1c(Cl)c(Cl)cnn1Cc1ccccc1 — MIC (bacterial growth; H37Rv, 7H9 medium): 250 µM
CCc1nc2ccc(OC(F)(F)F)cn2c1C(=O)NCc1ccc2oc(-c3ccc(Cl)cc3)nc2c1 — MIC (optical density; H37Rv; 144 h): > 10 µM
Cc1ccc2nc(C)c(CC(=O)NCc3ccccc3)n2c1 — MIC (microbial growth, resazurin; H37RV): 19 µM
Cc1[nH]n(-c2ccccc2)c(=O)c1/N=N/c1nnc(S)s1 — MIC (microbial growth, resazurin; H37RV; 5 days): > 64 µg/mL
O=c1c(N2CCCC2)c(Cl)cnn1-c1ccccc1 — MIC (bacterial growth; H37Rv, 7H9 medium with OADC): 910 µM
CCOc1cc(/C=N/NC(=O)c2ccncc2)ccc1OC(=O)CN1C(=O)CSC1=O — MIC (microbial growth, resazurin; H37RV): 0.283 µM
CCc1nc2ccc(Br)cn2c1C(=O)NCc1ccc2oc(-c3ccc(Cl)cc3)nc2c1 — MIC (optical density; H37Rv; 144 h): 0.2 µM
COc1c(N2CC3CCCNC3C2)c(F)cc2c(=O)c(C(=O)OCc3cncs3)cn(C3CC3)c12 (centres unmarked) — MIC (microbial growth; H37RV): 2 to 8 µM
CCSc1cnn(-c2ccccc2)c(=O)c1Cl — MIC (bacterial growth; H37Rv, 7H9 medium): 470 µM
CC(C)C[C@H](NC(=O)[C@H](C)NC(=O)[C@H](CCC(=O)O)NC(=O)[C@@H](N)Cc1c[nH]cn1)C(=O)N[C@H](C(=O)N[C@@H](CC(=O)O)C(=O)N1CCC[C@H]1C(=O)N[C@@H](CC(=O)O)C(=O)O)[C@@H](C)OP(=O)(O)O — MIC (H37Rv): > 100 µg/mL
NNC(=O)c1ccncc1.O=C(CN1C(=O)CSC1=O)Oc1ccc(C=NNC(=O)c2ccncc2)cc1 — MIC (growth in combination; 192; added: reference drug at 1/2 MIC): 0.0312 µg/mL
COc1c(N2CC3CCCNC3C2)c(F)cc2c(=O)c(C(=O)OCc3ccc([N+](=O)[O-])o3)cn(C3CC3)c12 (centres unmarked) — MIC (microbial growth; H37RV): 8 µM
COc1ccc2nccc(CC[C@H]3OC[C@H](NC(=O)c4ccc(Cl)c(Cl)c4)CO3)c2c1 — MIC (microbial growth; H37RV): ≤ 1 µg/mL
Cc1nn(-c2ccccc2)c(C)c1/N=N/c1nnc(S)[nH]1 — MIC (microbial growth, resazurin; H37RV; 5 days): > 64 µg/mL
NC(=S)N/N=C/c1ccc(OC(=O)CC2SC(=O)NC2=O)cc1 (centres unmarked) — MIC (microbial growth, resazurin; H37RV): 2.84 µM
CCOc1c(Cl)cnn(-c2ccccc2)c1=O — MIC (bacterial growth; H37Rv, 7H9 medium): 500 µM
COc1ccc2ncc(F)c(C[C@H](O)[C@H]3OC[C@H](NCc4ccc5c(c4)OCCO5)CO3)c2c1 — MIC (microbial growth; H37RV): 2 µg/mL
Cc1nc2ccc(C(F)(F)F)cn2c1C(=O)NCc1ccc2oc(-c3ccc(OC(F)(F)F)cc3)nc2c1 — MIC (optical density; H37Rv; 144 h): > 25 µM

For quick reference, copied from above:
Cc1ccc(CNC(=O)C(=O)c2c(C)nc3ccc(C)cn23)cc1 — MIC (microbial growth; H37RV; 5 days): 4.5 µM
COc1cc(/C=N/NC(=O)c2ccncc2)ccc1OC(=O)CN1C(=O)CSC1=O — MIC (Alamar blue; 192): 149 µM
Cc1nc2ccc(C(F)(F)F)cn2c1C(=O)NCc1ccc2oc(-c3ccc(OC(F)(F)F)cc3)nc2c1 — MIC (optical density; H37Rv; 144 h): > 25 µM
Cc1ccc2nc(C)c(CC(=O)NCc3ccccc3)n2c1 — MIC (microbial growth, resazurin; H37RV): 19 µM
Cc1nc2ccc(Br)cn2c1C(=O)NCc1ccc2oc(-c3ccc(Cl)cc3)nc2c1 — MIC (optical density; H37Rv; 144 h): 0.2 µM
O=C(CN1C(=O)CSC1=O)Oc1ccc(/C=N/NC(=O)c2ccncc2)cc1Cl — MIC (microbial growth, resazurin; H37RV): 0.144 µM
